Results gathered from unrelated publications.
± gives the spread as reported.

CN(O)N=Nc1ccc(S(=O)(=O)Nc2nccs2)cc1
inhibition (paw oedema; rat, carrageenan oedema; oral, 100 mg/kg, 2 h after carrageenan; relative to: vehicle): 44.9%

RALRTK
inhibition of RANTES release (ELISA or Luminex; peptide, mouse peritoneal macrophages, C57BL/6 mouse; optimal dose within 0.1 pM to 100 nM, 1 h pretreatment, 15 h stimulation, added: LPS 100 ng/mL + IFN-γ 20 ng/mL; relative to: LPS/IFN-γ stimulated control): 0%

CCCCCNc1oc2c(C)ncc(CO)c2c1Nc1ccccn1
IgG titre rise (adjuvant activity, refers to: anti-α-lactalbumin IgG; New Zealand White rabbit; intramuscular, 100 µg, day 38, unit not given, added: bovine α-lactalbumin 100 µg; relative to: pre-immune titre): > 1000

CC(C)C[C@H](NC(=O)[C@H](CO)NC(=O)[C@H](CCCNC(=N)N)NC(=O)[C@H](CC(=O)O)NC(=O)[C@H](CCC(=O)O)NC(=O)[C@H](C)NC(=O)[C@@H]1CCCN1C(=O)[C@H](C)NC(=O)[C@H](CCC(=O)O)NC(=O)[C@@H]1CCCN1C(=O)[C@@H]1CCCN1)C(N)=O
HVA level (HPLC-EC; F344 rat, normal, striatum; intranasal, 100 µg, 5 days/week for 3 weeks): 570 ± 78 ng/g

CCCOc1ccc(/C=C(\C(=O)c2cc(C)[nH]c(=O)c2C(=O)N2CCCCC2)c2ccc(OCCC)cc2)cc1
IC50 (cell proliferation, MTT; 35404 melanoma brain metastasis, human patient-derived; 72 h, tested up to 10 µM): > 10000 nM

Cc1c(C)c2c(c(C)c1O)CCC(C)(C(=O)NN=C1C(=O)Nc3ccccc31)O2 (stereo not shown)
minimal effective dose (seizure protection; male CF-1 mice; intraperitoneal, 4 h, added: maximal electroshock): > 300 mg/kg

insulin aspart
time to early 50% GIRmax (euglycaemic glucose clamp; elderly type 1 diabetes; subcutaneous, 0.2 U/kg): 37.7 min

O=C1CSC(NN=C2c3ccccc3-c3nc4cc(F)ccc4nc32)=N1
blood glucose (mice with STZ-induced diabetes; oral, 25 mg/kg, 288 h, day 12): 230 ± 9.3 mg/dL

CCOc1ccc(Cc2cc([C@]34OC[C@](CO)(O3)[C@@H](O)[C@H](O)[C@H]4O)ccc2Cl)cc1
urinary glucose excretion (human, type 2 diabetes, severe renal impairment; dose not given, 24 h; relative to: normal renal function median): ~15%

CN1CCN(CC(=O)N2c3ccccc3C(=O)Nc3cccnc32)CC1
EPSC amplitude (whole-cell voltage clamp; nucleus accumbens core D2-MSNs, mouse; 1 µM, added: D1-MSN 50 Hz stimulation; relative to: baseline): 107 ± 6.54%

CCN(O)N=Nc1ccc(S(=O)(=O)Nc2onc(C)c2C)cc1
inhibition (paw oedema; rat, carrageenan oedema; oral, 100 mg/kg, 4 h after carrageenan; relative to: vehicle): 77.1%

CS/C(S)=N/CCCC[S+](C)[O-] (racemic)
mRNA fold change (RT-PCR, refers to: Nos2 (inducible); rat, liver; oral gavage, 200 mg/kg, 96 h, dosed for four days; relative to: vehicle): 0.658

O=C1CCc2c(Oc3ccc4c(c3)[C@@H]3[C@H](O4)[C@H]3c3nc4ccc(C(F)(F)F)cc4[nH]3)ccnc2N1
confirmed partial response (RECIST; patients with B-RAF-mutated solid tumours; dose not given): 15.1%

Cc1c(C)c2c(c(C)c1O)CCC(C)(C(=O)NN=C1C(=O)Nc3ccc(Cl)cc31)O2 (stereo not shown)
minimal effective dose (seizure protection; male CF-1 mice; intraperitoneal, 0.5 h, added: maximal electroshock): 30 mg/kg

insulin aspart
peak plasma glucose (obese type 2 diabetes patients; subcutaneous, 0.2 U/kg, before standard meal): 181 mg/dL

CCCCCCCCCCCCCCCC(=O)OCC(=O)[C@@]12O[C@H](CCC)O[C@@H]1C[C@H]1[C@@H]3C[C@H](F)C4=CC(=O)CC[C@]4(C)[C@@]3(F)[C@@H](O)C[C@@]12C
AUC(2-58 h) fold change (refers to: human FGF21 protein; CD-1 mouse, plasma; subcutaneous, 0.3 mg/kg mRNA, MC3 LNP with hFGF21 mRNA, steroid/mRNA 2:3; relative to: LNP without steroid): 2.6 fold

CCCN(O)N=Nc1ccc(S(=O)(=O)Nc2nccs2)cc1
inhibition (paw oedema; rat, carrageenan oedema; oral, 100 mg/kg, 4 h after carrageenan; relative to: vehicle): 82.3%

Cc1c(C)c2c(c(C)c1O)CCC(C)(C(=O)NN=C1C(=O)Nc3ccc(Br)cc31)O2 (stereo not shown)
minimal effective dose (seizure protection; male CF-1 mice; intraperitoneal, 4 h, added: pentylenetetrazole 60 mg/kg subcutaneous): 30 mg/kg

Cc1c(C(=O)NN2CCCCC2)nn(-c2ccc(Cl)cc2Cl)c1-c1ccc(Cl)cc1
food intake (rat, lean; intracerebroventricular, 5 µg per day, 6 days; relative to: vehicle): decreased

CC[C@H](C)[C@H](NC(=O)[C@H](CO)NC(=O)[C@H](CCC(N)=O)NC(=O)[C@H](CC(C)C)NC(=O)[C@H](Cc1ccc(O)cc1)NC(=O)[C@H](CCCCN)NC(=O)[C@H](CCCCN)NC(=O)[C@H](C)NC(=O)[C@H](C)NC(=O)[C@@H](NC(=O)[C@H](CCC(N)=O)NC(=O)[C@H](CCCCN)NC(=O)[C@H](CCCNC(=N)N)NC(=O)[C@H](CC(C)C)NC(=O)[C@H](CCCNC(=N)N)NC(=O)[C@@H](NC(=O)[C@H](Cc1ccc(O)cc1)NC(=O)[C@H](CC(N)=O)NC(=O)[C@H](CC(=O)O)NC(=O)[C@@H](NC(=O)[C@H](Cc1ccccc1)NC(=O)[C@@H](NC(=O)[C@H](C)NC(=O)[C@H](CC(=O)O)NC(=O)[C@H](CO)NC(=O)[C@@H](N)Cc1c[nH]cn1)C(C)C)[C@@H](C)O)[C@@H](C)O)C(C)C)C(=O)N[C@@H](CCCCN)C(=O)N[C@@H](CC(N)=O)C(=O)N[C@@H](CCCCN)C(=O)N[C@@H](CCCNC(=N)N)C(=O)N[C@@H](Cc1ccc(O)cc1)C(N)=O
first-phase insulin secretion AUC (IPGTT; db/db mouse; intraperitoneal, 20 nmol/kg, 5 to 15 min, dosed 15 min before glucose; relative to: normal saline): 0.82 fold

Cc1ccc2c(ccc3cc4ccccc4cc32)c1
minimal protective dose (adrenal haemorrhage prevention; rat; oral, added: 7,12-DMBA 5 mg i.v.): 0.5 mg

Cc1cc(-c2ccc(C(=O)[C@@H]3CCCC[C@H]3C(=O)Nc3cnn4c3C(=O)NCC4)cc2)n[nH]1
IC50 (LTB4 production, refers to: leukotriene B4; human, whole blood, ex vivo; versus trough plasma concentration, added: calcium ionophore): 5.3 nM

Cc1c(C)c2c(c(C)c1OCc1ccccc1)CCC(C)(C(=O)NN=C1C(=O)Nc3ccc(Cl)cc31)O2 (stereo not shown)
minimal effective dose (seizure protection; male CF-1 mice; intraperitoneal, 4 h, added: pentylenetetrazole 60 mg/kg subcutaneous): 100 mg/kg

O=c1cc(N2CCOCC2)oc2c(-c3ccccc3)cccc12
VEGF level (Western blot; mouse myocardial infarction, myocardium; intraperitoneal, 1.5 mg/kg/day, added: PEG-exendin-4): inhibited

PHGYFLPGQFA
inhibition of RANTES release (ELISA or Luminex; peptide, mouse peritoneal macrophages, C57BL/6 mouse; optimal dose within 0.1 pM to 100 nM, 1 h pretreatment, 15 h stimulation, added: LPS 100 ng/mL + IFN-γ 20 ng/mL; relative to: LPS/IFN-γ stimulated control): 0%

Cc1cccc2cc3c(cc12)c(C)cc1ccccc13
minimal protective dose (adrenal haemorrhage prevention; rat; oral, added: 7,12-DMBA 5 mg i.v.): 1 mg

Cc1c(C)c2c(c(C)c1OCc1ccccc1)CCC(C)(C(=O)NN=C1C(=O)Nc3ccc(F)cc31)O2 (stereo not shown)
minimal effective dose (seizure protection; male CF-1 mice; intraperitoneal, 4 h, added: pentylenetetrazole 60 mg/kg subcutaneous): 300 mg/kg

Nc1nnc(-c2cccc(Cl)c2Cl)c(N)n1
GTCS progressing to tonic hindlimb extension (Scn1a+/- mice; oral in chow, dose not given, spontaneous seizures, subchronic; relative to: untreated): decreased

COc1ccc(Cl)cc1C(=O)NCCc1ccc(S(=O)(=O)NC(=O)NC2CCCCC2)cc1
TBARS (STZ-induced diabetic rat, liver; oral, 0.5 mg/kg, day 28): 2.56 ± 0.69 nmol MDA/mg protein

C[C@]12CCCN1CC1=NNC(=O)c3cc(F)cc4[nH]c2c1c34
inhibition (PARylation in tumour; mouse, MDA-MB-436 xenograft, tumour; 1.5 mg/kg, 0.5 h): 89%

Cc1c(C)c2c(c(C)c1O)CCC(C)(C(=O)NN=C1C(=O)Nc3cc(Cl)ccc31)O2 (stereo not shown)
minimal effective dose (seizure protection; male CF-1 mice; intraperitoneal, 4 h, added: pentylenetetrazole 60 mg/kg subcutaneous): 30 mg/kg

Cc1ccc2cc3c(ccc4ccccc43)cc2c1
minimal protective dose (adrenal haemorrhage prevention; rat; oral, added: 7,12-DMBA 5 mg i.v.): 0.5 mg

CCOC(=O)c1sc(N=C2c3ccccc3-c3nc4cc(F)ccc4nc32)nc1C
blood glucose (mice with STZ-induced diabetes; oral, 25 mg/kg, 144 h, day 6): 364 ± 69 mg/dL

CC(C)[C@H](NC(=O)C(C)(F)F)[C@H](Oc1ccc2c(cnn2-c2ccc(=O)n(C)c2)c1)c1ccccc1
IC50 (TNF-alpha release; human, whole blood ex vivo; unbound concentration, PK/PD model, added: lipopolysaccharide): 4.87 nM

Cc1ccc(N(O)N=Nc2ccc(S(=O)(=O)Nc3onc(C)c3C)cc2)cc1
inhibition (paw oedema; rat, carrageenan oedema; oral, 100 mg/kg, 4 h after carrageenan; relative to: vehicle): 76.8%

Cc1c(C)c2c(c(C)c1O)CCC(C)(C(=O)NN=C1C(=O)N(C)c3ccccc31)O2 (stereo not shown)
minimal effective dose (seizure protection; male CF-1 mice; intraperitoneal, 4 h, added: maximal electroshock): 30 mg/kg

Oc1cc2c(cc1O)C(c1ccccc1)CNCC2 (stereo not shown)
cognitive performance recovery (T-maze alternation; CD-1 mouse, male; sc, 2 mg/kg, added: MK-801 0.075 mg/kg sc): 57%

COc1c(C)c(C)c2c(c1C)CCC(C)(C(=O)NN=C1C(=O)Nc3ccccc31)O2 (stereo not shown)
minimal effective dose (seizure protection; male CF-1 mice; intraperitoneal, 0.5 h, added: pentylenetetrazole 60 mg/kg subcutaneous): 100 mg/kg

Cc1cc(C(=O)/C(=C\c2cccc(F)c2)c2cccc(F)c2)c(C(=O)N2CCCCC2)c(=O)[nH]1
IC50 (cell proliferation, MTT; 35404 melanoma brain metastasis, human patient-derived; 72 h, tested up to 10 µM): > 10000 nM

CC(C)NC(=O)[C@H]1CCC[C@H]1Nc1nc(Nc2ccc(C(=O)N(C)C3CCN(C)CC3)cc2)ncc1C(F)(F)F
effective dose (immunohistochemistry, refers to: phospho-histone H3; advanced solid tumour patients, skin biopsy epidermis; day 16 of cycle 1, dosing): ≥ 58 mg

CC(C)[C@H](NC(=O)[C@@H]1CSSC(C)(C)[C@H](NC(=O)[C@@H](N)CC(=O)O)C(=O)N[C@@H](Cc2ccccc2)C(=O)N[C@H](Cc2c[nH]c3ccccc23)C(=O)N[C@@H](CCCN)C(=O)N[C@@H](Cc2ccc(N)cc2)C(=O)N1)C(=O)O
intracavernous pressure AUC (male Wistar rat, anaesthetised; intracavernous, 0.03 nmol): 242 ± 33.8 mmHg·s

O=C(NC1CCNCC1)c1n[nH]cc1NC(=O)c1c(Cl)cccc1Cl
Ki67 change (patients, skin biopsy; dose not given, 24 h after infusion end; relative to: pre-dose): no effect

CCOC(=O)C=C1SC(NN=C2c3ccccc3-c3nc4cc(F)ccc4nc32)=NC1=O
blood glucose (mice with STZ-induced diabetes; oral, 25 mg/kg, 288 h, day 12): 323 ± 65.2 mg/dL

SIIVFEKL
IL-2+ TNF-α+ cells (flow cytometry, refers to: CD44hi CD8+ T cells; peptide, OT-I CD8+ T cells, mouse; dose not given, primed 5 days, restimulated 100 ng/mL OVA257, added: no TGF-β1): 2.62%

O=C1CSC(N=C2c3ccccc3-c3nc4cc(F)ccc4nc32)=N1
blood glucose (mice with STZ-induced diabetes; oral, 25 mg/kg, 144 h, day 6): 293 ± 17.8 mg/dL

COc1ccc2c(c1)c(CC(=O)O)c(C)n2C(=O)c1ccc(Cl)cc1
cytokine level (multiplex bead immunoassay, refers to: IL-6; CD-1 mice, serum; ip, 20 mg/kg, three-injection regimen, added: LPS 3 mg/kg): 1910 ± 1110 pg/mL

CCN(O)N=Nc1ccc(S(=O)(=O)Nc2nccs2)cc1
inhibition (paw oedema; rat, carrageenan oedema; oral, 100 mg/kg, 2 h after carrageenan; relative to: vehicle): 30.3%

NCCCC[C@@H]1NC(=O)[C@@H](Cc2c[nH]c3ccccc23)NC(=O)[C@H](c2ccccc2)NC(=O)[C@@H]2C[C@@H](OC(=O)NCCN)CN2C(=O)[C@H](Cc2ccccc2)NC(=O)[C@H](Cc2ccc(OCc3ccccc3)cc2)NC1=O
GH AUC(0-2h) change (GHRH-stimulated GH secretion; healthy human volunteers; subcutaneous, 600 µg, added: GHRH 1 µg/kg; relative to: pre-dose baseline): -82.5%

NNC1=NC(=O)C(=C2c3ccccc3-c3nc4cc(F)ccc4nc32)S1
blood glucose (mice with STZ-induced diabetes; oral, 25 mg/kg, 288 h, day 12): 408 ± 40.3 mg/dL
